Published values from different studies.
Protocols differ between the studies behind these lines. Numbers after ± are the reported error.
SYK SH2 domains: Tyrosine-protein kinase SYK, SH2 domains (SYK, Homo sapiens, UniProt P43405)
Chain of UniProt Q13310 (whole entry, looked up): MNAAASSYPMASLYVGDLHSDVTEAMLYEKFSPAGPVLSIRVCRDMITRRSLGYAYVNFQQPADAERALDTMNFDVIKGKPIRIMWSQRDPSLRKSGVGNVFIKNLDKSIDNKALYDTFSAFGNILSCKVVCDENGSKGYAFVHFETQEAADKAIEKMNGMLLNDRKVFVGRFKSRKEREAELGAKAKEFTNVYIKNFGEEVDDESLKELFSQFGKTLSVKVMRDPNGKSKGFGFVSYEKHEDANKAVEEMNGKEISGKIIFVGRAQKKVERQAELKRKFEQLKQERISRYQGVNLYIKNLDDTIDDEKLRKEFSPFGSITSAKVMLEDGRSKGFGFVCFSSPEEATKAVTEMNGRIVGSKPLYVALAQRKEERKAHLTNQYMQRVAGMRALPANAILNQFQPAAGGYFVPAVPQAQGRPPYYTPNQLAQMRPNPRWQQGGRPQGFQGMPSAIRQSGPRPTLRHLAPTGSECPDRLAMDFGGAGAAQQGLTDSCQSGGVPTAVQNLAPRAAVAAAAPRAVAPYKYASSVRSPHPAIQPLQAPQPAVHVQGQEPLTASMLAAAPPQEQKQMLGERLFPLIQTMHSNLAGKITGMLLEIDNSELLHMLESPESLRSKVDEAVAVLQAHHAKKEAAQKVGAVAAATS
Chain of UniProt O75676 (whole entry, looked up): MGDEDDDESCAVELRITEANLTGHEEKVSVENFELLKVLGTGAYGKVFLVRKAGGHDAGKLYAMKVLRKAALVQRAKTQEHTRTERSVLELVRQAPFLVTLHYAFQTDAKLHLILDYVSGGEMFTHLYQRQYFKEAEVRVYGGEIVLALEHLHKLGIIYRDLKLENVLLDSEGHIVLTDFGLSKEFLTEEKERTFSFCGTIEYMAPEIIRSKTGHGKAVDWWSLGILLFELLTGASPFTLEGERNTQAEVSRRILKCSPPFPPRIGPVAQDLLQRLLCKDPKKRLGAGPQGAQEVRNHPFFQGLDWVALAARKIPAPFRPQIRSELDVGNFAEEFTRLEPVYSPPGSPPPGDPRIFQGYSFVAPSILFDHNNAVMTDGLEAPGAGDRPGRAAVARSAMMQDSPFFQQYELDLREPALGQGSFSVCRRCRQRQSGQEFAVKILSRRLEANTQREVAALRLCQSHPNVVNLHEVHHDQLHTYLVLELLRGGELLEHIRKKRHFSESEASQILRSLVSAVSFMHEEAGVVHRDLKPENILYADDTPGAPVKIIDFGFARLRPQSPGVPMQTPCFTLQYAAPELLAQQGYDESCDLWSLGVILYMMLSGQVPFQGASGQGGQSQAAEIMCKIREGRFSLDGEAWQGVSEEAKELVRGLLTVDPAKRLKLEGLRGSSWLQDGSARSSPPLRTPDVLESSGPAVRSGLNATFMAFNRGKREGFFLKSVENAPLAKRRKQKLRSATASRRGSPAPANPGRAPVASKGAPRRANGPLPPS
Chain of UniProt Q9Y2K6 (whole entry, looked up): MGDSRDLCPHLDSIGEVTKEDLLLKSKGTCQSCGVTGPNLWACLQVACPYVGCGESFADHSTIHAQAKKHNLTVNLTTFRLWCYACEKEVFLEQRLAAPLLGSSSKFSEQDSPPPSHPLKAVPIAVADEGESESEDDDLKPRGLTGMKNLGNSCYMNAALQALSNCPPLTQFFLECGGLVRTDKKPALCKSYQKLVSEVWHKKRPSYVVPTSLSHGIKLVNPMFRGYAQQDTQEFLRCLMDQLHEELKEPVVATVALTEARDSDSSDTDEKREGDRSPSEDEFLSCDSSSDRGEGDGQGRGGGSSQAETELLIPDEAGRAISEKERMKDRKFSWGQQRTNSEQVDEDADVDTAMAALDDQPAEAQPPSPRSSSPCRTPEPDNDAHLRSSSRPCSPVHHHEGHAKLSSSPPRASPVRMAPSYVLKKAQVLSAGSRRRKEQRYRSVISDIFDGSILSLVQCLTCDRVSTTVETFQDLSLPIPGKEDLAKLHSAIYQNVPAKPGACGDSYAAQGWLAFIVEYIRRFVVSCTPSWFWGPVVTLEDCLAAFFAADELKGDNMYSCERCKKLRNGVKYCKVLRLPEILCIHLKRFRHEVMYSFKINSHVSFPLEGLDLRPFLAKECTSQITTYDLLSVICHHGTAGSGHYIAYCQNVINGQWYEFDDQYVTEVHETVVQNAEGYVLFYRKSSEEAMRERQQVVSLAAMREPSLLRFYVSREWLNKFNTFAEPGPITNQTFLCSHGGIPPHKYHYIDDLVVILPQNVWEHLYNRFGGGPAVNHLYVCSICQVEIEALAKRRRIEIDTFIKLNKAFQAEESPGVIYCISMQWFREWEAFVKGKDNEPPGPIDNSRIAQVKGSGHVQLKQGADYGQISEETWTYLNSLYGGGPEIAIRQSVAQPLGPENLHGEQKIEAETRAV
Chain of UniProt Q9HBL0 (whole entry, looked up): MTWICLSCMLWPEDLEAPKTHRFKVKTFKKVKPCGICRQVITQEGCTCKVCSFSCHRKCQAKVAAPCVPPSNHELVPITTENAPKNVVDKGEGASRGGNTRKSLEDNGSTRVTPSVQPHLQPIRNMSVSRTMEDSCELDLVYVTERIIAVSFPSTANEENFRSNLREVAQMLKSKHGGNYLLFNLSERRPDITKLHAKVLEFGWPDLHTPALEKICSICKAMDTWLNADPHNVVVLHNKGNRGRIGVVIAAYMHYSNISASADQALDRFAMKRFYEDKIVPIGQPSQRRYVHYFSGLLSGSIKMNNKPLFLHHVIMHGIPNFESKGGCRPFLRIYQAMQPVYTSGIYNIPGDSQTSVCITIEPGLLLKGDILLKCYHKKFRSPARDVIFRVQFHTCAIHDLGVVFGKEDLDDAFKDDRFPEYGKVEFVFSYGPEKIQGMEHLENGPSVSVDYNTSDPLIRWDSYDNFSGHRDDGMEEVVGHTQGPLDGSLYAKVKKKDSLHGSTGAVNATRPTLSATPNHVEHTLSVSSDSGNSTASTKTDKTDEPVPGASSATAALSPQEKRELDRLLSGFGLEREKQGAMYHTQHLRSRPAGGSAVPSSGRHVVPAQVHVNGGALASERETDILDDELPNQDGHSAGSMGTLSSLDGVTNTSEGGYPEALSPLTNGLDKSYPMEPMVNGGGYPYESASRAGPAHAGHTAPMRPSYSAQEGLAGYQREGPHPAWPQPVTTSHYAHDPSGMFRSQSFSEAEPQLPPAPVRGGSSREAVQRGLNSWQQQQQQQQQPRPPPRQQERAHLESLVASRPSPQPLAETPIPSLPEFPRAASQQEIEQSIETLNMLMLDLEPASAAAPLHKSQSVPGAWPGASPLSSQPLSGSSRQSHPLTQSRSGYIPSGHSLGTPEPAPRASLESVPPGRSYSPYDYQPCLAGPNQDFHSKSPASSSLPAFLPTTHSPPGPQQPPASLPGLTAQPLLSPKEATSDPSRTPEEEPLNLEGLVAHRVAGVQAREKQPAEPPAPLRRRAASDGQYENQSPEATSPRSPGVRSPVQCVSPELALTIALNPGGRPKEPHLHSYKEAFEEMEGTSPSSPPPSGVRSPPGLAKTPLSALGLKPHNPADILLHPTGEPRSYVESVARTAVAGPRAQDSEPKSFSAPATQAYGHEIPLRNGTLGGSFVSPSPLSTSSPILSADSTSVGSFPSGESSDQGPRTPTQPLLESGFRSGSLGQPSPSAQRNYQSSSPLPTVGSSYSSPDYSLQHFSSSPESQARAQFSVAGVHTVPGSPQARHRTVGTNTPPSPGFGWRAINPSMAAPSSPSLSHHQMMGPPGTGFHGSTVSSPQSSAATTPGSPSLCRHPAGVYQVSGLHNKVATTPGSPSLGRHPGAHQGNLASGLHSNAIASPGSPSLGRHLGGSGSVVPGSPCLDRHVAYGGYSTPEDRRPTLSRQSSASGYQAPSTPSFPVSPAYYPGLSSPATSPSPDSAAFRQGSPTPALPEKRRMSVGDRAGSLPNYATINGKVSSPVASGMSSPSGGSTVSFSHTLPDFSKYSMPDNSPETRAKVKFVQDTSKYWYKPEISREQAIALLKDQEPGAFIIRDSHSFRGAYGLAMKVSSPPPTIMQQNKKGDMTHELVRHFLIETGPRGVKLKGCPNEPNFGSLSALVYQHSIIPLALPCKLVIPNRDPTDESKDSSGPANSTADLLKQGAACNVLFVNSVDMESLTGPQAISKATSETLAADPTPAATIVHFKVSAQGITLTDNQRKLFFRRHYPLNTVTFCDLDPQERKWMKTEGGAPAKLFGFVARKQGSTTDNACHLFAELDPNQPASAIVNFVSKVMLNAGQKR
Chain of UniProt P05046 (whole entry, looked up): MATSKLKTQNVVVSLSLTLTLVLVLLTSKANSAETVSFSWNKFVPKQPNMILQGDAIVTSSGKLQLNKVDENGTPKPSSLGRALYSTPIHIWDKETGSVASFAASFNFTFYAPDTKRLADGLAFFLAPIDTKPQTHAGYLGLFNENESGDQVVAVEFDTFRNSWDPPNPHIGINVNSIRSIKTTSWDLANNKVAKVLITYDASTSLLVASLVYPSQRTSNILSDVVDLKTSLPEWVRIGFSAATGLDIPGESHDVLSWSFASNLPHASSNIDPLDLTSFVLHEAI
Chain of UniProt Q93096 (whole entry, looked up): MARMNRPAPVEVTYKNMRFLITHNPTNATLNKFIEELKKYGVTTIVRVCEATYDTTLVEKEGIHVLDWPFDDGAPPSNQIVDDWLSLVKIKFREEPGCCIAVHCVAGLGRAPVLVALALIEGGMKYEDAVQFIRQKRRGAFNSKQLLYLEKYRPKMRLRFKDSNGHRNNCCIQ

SMILES | tested on | assay | system | conditions | how to read | measurement | result
CC[C@H](C)[C@H](NC(=O)[C@H](Cc1ccc(OP(=O)(O)O)cc1)NC(=O)[C@H](CCC(=O)O)NC(=O)[C@@H]1CCCN1C(=O)[C@@H](NC(=O)[C@@H]1CCCN1C(=O)[C@H](CC(C)C)NC(=O)[C@H](Cc1ccccc1)NC(=O)[C@@H](NC(=O)[C@H](CC(=O)O)NC(=O)[C@H](CC(=O)O)NC(=O)c1ccc2c(c1)C(=O)OC21c2ccc(N(C)C)cc2Oc2cc(N(C)C)ccc21)[C@@H](C)O)C(C)C)C(=O)N[C@@H](CC(N)=O)C(=O)N[C@@H](CCC(N)=O)C(=O)N[C@@H](CO)C(=O)N[C@H](C(=O)N1CCC[C@H]1C(=O)N[C@@H](CCCCN)C(=O)N[C@@H](CC(=O)O)C(=O)O)C(C)C | Tyrosine-protein kinase ABL2, SH2 domain (ABL2, Homo sapiens, UniProt P42684) | binding |  |  |  | Kd | 0.152 µM
CC[C@H](C)[C@H](NC(=O)[C@H](Cc1ccccc1)NC(=O)[C@H](CCC(=O)O)NC(=O)[C@H](CCCNC(=N)N)NC(=O)[C@H](C)NC(=O)[C@H](C)NC(=O)[C@H](CCC(N)=O)NC(=O)[C@H](CCC(=O)O)NC(=O)[C@H](CCC(=O)O)NC(=O)[C@H](CC(C)C)NC(=O)[C@H](Cc1ccc(O)cc1)NC(=O)[C@H](CO)NC(=O)[C@H](CO)NC(=O)[C@@H](NC(=O)[C@H](CC(=O)O)NC(=O)[C@H](CO)NC(=O)[C@@H](NC(=O)[C@H](Cc1ccccc1)NC(=O)[C@@H](NC(=O)CNC(=O)[C@H](CCC(=O)O)NC(=O)[C@H](C)NC(=O)CCc1c[nH]cn1)[C@@H](C)O)[C@@H](C)O)C(C)C)C(=O)N[C@@H](C)C(=O)N[C@@H](Cc1c[nH]c2ccccc12)C(=O)N[C@@H](CC(C)C)C(=O)N[C@H](C(=O)N[C@@H](CCCNC(=N)N)C(=O)NCC(=O)N[C@@H](CCCNC(=N)N)C(=O)N[C@@H](CCCCNC(=O)COCCOCCNC(=O)COCCOCCNC(=O)CC[C@H](NC(=O)CCCCCCCCCCCCCCCCC(=O)O)C(=O)O)C(=O)NCC(=O)NCC(=O)N[C@@H](CO)C(=O)N[C@@H](CCCCNc1c(NCCCCCN(O)C(=O)CCC(=O)NCCCCCN(O)C(=O)CCC(=O)NCCCCCN(O)C(C)=O)c(=O)c1=O)C(=O)O)C(C)C [zirconium-89 labelled] |  |  | rat, intestine | sc, 3 nmol/kg, 24 h, ex vivo |  | tissue uptake | 0.16 %ID/g
CSCC[C@H](NC(=O)[C@H](Cc1ccc(OP(=O)(O)O)cc1)NC(=O)CNC(=O)CNC(=O)[C@H](CC(=O)O)NC(=O)[C@H](CO)NC(=O)[C@H](CCC(=O)O)NC(=O)CNC(=O)[C@@H](NC(=O)[C@H](CC(C)C)NC(=O)[C@H](CO)NC(=O)c1ccc2c(c1)C(=O)OC21c2ccc(N(C)C)cc2Oc2cc(N(C)C)ccc21)[C@@H](C)O)C(=O)N[C@@H](CC(=O)O)C(=O)N[C@@H](CCSC)C(=O)N[C@@H](CO)C(=O)N[C@@H](CCCCN)C(=O)N[C@@H](CC(=O)O)C(=O)N[C@@H](CCC(=O)O)C(=O)N[C@@H](CC(=O)O)C(=O)O | SYK SH2 domains | binding |  |  |  | Kd | 0.288 µM
C[C@H]1CN(c2n[nH]c3nc(N[C@H]4CC[C@H](NS(=O)(=O)CCC(F)(F)F)CC4)ncc23)CCO1 | Polyadenylate-binding protein 4 (Homo sapiens, UniProt Q13310) | Kinobeads competition, refers to: PABPC4 |  | 20 µM, unit not given | reference: vehicle | remaining binding | 1.24
C[C@H](NC(=O)[C@@H](NC(=O)[C@H](CO)NC(=O)[C@H](Cc1c[nH]cn1)NC(=O)[C@@H]1CCCN1C(=O)[C@H](CC(=O)O)NC(=O)[C@H](CCC(N)=O)NC(=O)[C@H](Cc1ccc(OP(=O)(O)O)cc1)NC(=O)[C@H](Cc1c[nH]cn1)NC(=O)[C@@H]1CCCN1C(=O)[C@H](CC(=O)O)NC(=O)[C@H](CCCNC(=N)N)NC(=O)[C@H](CO)NC(=O)[C@@H]1CCCN1C(=O)[C@H](C)NC(=O)[C@@H]1CCCN1C(=O)[C@H](CC(N)=O)NC(=O)c1ccc2c(c1)C(=O)OC21c2ccc(N(C)C)cc2Oc2cc(N(C)C)ccc21)[C@@H](C)O)C(=O)N[C@@H](CC(=O)O)C(=O)O | Tensin-1, SH2 domain (TNS1, Homo sapiens, UniProt Q9HBL0) | binding |  |  |  | Kd | 1.28 µM
CC(=O)N[C@H]1[C@@H](O[C@H](C)[C@H](NC(C)=O)C(=O)N[C@H](C(=O)N[C@H](C(=O)NCC(=O)O)[C@@H](C)O[C@H]2O[C@H](CO)[C@H](O)[C@H](O)[C@H]2NC(C)=O)[C@@H](C)O[C@H]2O[C@H](CO)[C@H](O)[C@H](O)[C@H]2NC(C)=O)O[C@H](CO)[C@H](O)[C@@H]1O | LE1 (Glycine max, UniProt P05046) | glycan microarray |  | 5 glycans per BSA |  | Kd | 0.03 ± 0.01 µM
O=C(O)CNC(=O)c1cccnc1 | Ubiquitin carboxyl-terminal hydrolase 20, ZnF-UBD domain (USP20, Homo sapiens, UniProt Q9Y2K6) |  |  |  |  | Kd | > 1000 µM
CC(=O)N[C@H]1[C@@H](OC[C@H]2O[C@@H](O)[C@H](O)[C@@H](O)[C@H]2O)O[C@H](CO)[C@H](O)[C@@H]1O | Vicia villosa lectin | glycan microarray |  | 4 glycans per BSA |  | Kd | 0.188 ± 0.03 µM
CC[C@H](C)[C@@H]1NC(=O)[C@@H]2CCCN2C(=O)[C@H](CC(C)C)NC(=O)[C@H](CC(C)C)NC(=O)CNC(=O)[C@@H](NC(=O)[C@@H](NC(=O)[C@H](CC(=O)O)NC(=O)CNC(=O)[C@@H](NC(=O)[C@H](C)NC(=O)CNC(=O)[C@H](CCCCN)NC(=O)[C@H](CC(C)C)NC(=O)[C@H](CC(C)C)NC(=O)[C@H](CCCCN)NC(=O)CNC(=O)[C@@H](NC(=O)[C@@H](N)CC(C)C)C(C)C)C(C)C)C(C)C)CSSC[C@@H](C(=O)O)NC1=O |  | RNA-seq, refers to: Rgs18 | mouse, traumatic brain injury model, frontal cortex and hippocampus | dose not given | reference: TBI alone | log2 fold change | -4.61
CC[C@H](CO)Nc1nc(NCc2ccc(-c3ccccn3)cc2)c2ncn(C(C)C)c2n1 | Ribosomal protein S6 kinase alpha-4 (RPS6KA4, Homo sapiens, UniProt O75676) | binding, competition affinity chromatography | SH-SY5Y cell extract |  |  | Kd | 2.29 µM
CO[C@H]1C[C@@H]2CC[C@@H](C)[C@@](O)(O2)C(=O)C(=O)N2CCCC[C@H]2C(=O)O[C@H]([C@H](C)C[C@@H]2CC[C@@H](OC(=O)NCCOCCOCCOCCOCCOCCOCCOCCOCCC(=O)N3CCc4cc(Cn5nc(-c6ccc7oc(N)nc7c6)c6c(N)ncnc65)ccc4C3)[C@H](OC)C2)C[C@@H](O)[C@H](C)/C=C(\C)[C@@H](O)[C@@H](OC)C(=O)[C@H](C)C[C@H](C)/C=C/C=C/C=C/1C |  |  | patients with advanced solid tumours | intravenous, 10 mg weekly, grade 3 or higher |  | fatigue incidence | 12.5%
C[C@H](O)[C@H](O)c1cnc2[nH]c(N)nc(=O)c2n1 | Phenylalanine-4-hydroxylase (phhA, Chromobacterium violaceum, UniProt P30967, F107L/P134L/W180A/Y130S/Y179W) |  |  |  |  | Kd | 122 ± 25.1 µM
Nc1ncnc2c1ncn2[C@@H]1O[C@H](COP(=O)(O)OP(=O)(O)OP(=O)(O)O)[C@@H](O)[C@H]1O | matB (Rhodopseudomonas palustris, UniProt Q6ND88, C106A/K488A/Q457C/R286C) | binding |  | pH 7.0, 100 mM NaCl |  | Kd | 6.4 ± 0.6 µM
COc1cc(Nc2ncc(F)c(Nc3ccc4c(n3)NC(=O)C(C)(C)O4)n2)cc(OC)c1OC | Protein tyrosine phosphatase type IVA 1 (Homo sapiens, UniProt Q93096) |  |  | PRL-1 |  | IC50 | > 10 µM
CC(=O)N[C@H]1[C@@H](O[C@H]2[C@@H](O)[C@@H](CO)OC(O)[C@@H]2NC(C)=O)O[C@H](CO)[C@H](O)[C@@H]1O (stereo partly drawn) | Vicia villosa lectin | binding |  | 2 h |  | Kd | > 0.342 µM
COc1cc2c(Oc3ccc4[nH]c(C)cc4c3F)ccnc2cc1OCC1(N)CC1 |  |  | paediatric recurrent refractory sarcoma | 12 mg |  | grade 3 sinus tachycardia | 0%
CCCCCCCCCC(=O)NC1CCCC1 | qscR, ligand-binding domain (Pseudomonas aeruginosa, UniProt G3XD77) | ligand binding, FRET displacement |  | ligand-binding domain |  | Kd | 0.0648 µM
CC[C@H](C)[C@H](NC(=O)[C@H](CCC(N)=O)NC(=O)[C@H](Cc1c[nH]cn1)NC(=O)c1ccc2c(c1)C(=O)OC21c2ccc(N(C)C)cc2Oc2cc(N(C)C)ccc21)C(=O)N[C@@H](CO)C(=O)N[C@@H](CC(C)C)C(=O)N[C@@H](CC(=O)O)C(=O)N[C@@H](CC(N)=O)C(=O)N1CCC[C@H]1C(=O)N[C@@H](CC(=O)O)C(=O)N[C@@H](Cc1ccc(OP(=O)(O)O)cc1)C(=O)N[C@@H](CCC(N)=O)C(=O)N[C@@H](CCC(N)=O)C(=O)N[C@@H](CC(=O)O)C(=O)N[C@@H](Cc1ccccc1)C(=O)N[C@@H](Cc1ccccc1)C(=O)N1CCC[C@H]1C(=O)N[C@@H](CCCCN)C(=O)N[C@@H](CC(=O)O)C(=O)O | SYK SH2 domains | binding |  |  |  | Kd | 1.28 µM
